Measured values from different studies.
Protocols differ between the studies behind these lines. Numbers after ± are the reported error.

SMILES = Cc1cc(-c2nccc3c2ccn3CC(=O)Nc2ccc(-c3cnccn3)cn2)ccn1; system = human, plasma; conditions = oral, 5 mg once daily, day 1, geometric mean; quantity = terminal half-life; result = 9.77 h
SMILES = CCCn1cc(C)c2c(=O)[nH]c(-c3cc(S(=O)(=O)N4CCN(CC)CC4)ccc3OCC)nc21; test = LC-MS/MS; system = human, plasma; conditions = 100 mg, crossover trial, alone; quantity = terminal elimination rate constant; result = 0.135 ± 0.0548 h⁻¹
SMILES = CN(C)CCCNC(=O)/C(=C/CCCCC(=O)NO)COc1cccc2ccccc12; system = human patients; conditions = intravenous, 312.5 mg/m2, day 1, single dose, mean; quantity = terminal volume of distribution; result = 58.8 L
SMILES = CN(CC#N)C(=O)C[C@H](Nc1nc2ccccc2[nH]1)c1cccc(C(F)(F)F)c1; system = human; conditions = intravenous infusion, 1.5 mg/kg, 1 mg/mL formulation; quantity = terminal half-life; result = 3.6 ± 0.03 h
SMILES = C[C@@]1(c2cc(NC(=O)c3ccc(C#N)cn3)ccc2F)C=CSC(N)=N1; system = elderly humans, both sexes, plasma; conditions = oral, 90 mg single dose, mean; quantity = terminal half-life; result = 16.1 h
SMILES = COc1nnc2ccc(N3CCC(c4ccc(OCCN5CCN(C)C(=O)[C@H]5C)cc4)CC3)nn12; system = human, plasma; conditions = oral, 5 mg once daily, single dose, monotherapy; quantity = terminal half-life; result = 3.38 h
SMILES = Cc1cc(-c2nnc(N)nc2-c2ccc(F)cc2)cc(Cl)n1; system = human patients, plasma; conditions = oral, 75 mg capsule once daily, multiple doses, arithmetic mean; quantity = terminal half-life; result = 9.28 h
SMILES = Cl.[2H]C([2H])([2H])CC(=O)c1cnc(NC(=O)C2CC2)cc1Nc1cccc(-c2ncn(C([2H])([2H])[2H])n2)c1OC; system = human, fasted, multiple dose; conditions = oral, 40 mg twice daily, tablet, day 14, geometric mean; quantity = terminal elimination rate constant; result = 0.056 h⁻¹
SMILES = CN1C(=O)[C@@H](NC(=O)c2nnc(Cc3ccccc3)[nH]2)COc2cccnc21; system = healthy human, fasted, plasma; conditions = oral, 800 mg single dose, geometric mean; quantity = terminal half-life; result = 8.47 h

Some of these lines once more:
SMILES = Cl.[2H]C([2H])([2H])CC(=O)c1cnc(NC(=O)C2CC2)cc1Nc1cccc(-c2ncn(C([2H])([2H])[2H])n2)c1OC; system = human, fasted, multiple dose; conditions = oral, 40 mg twice daily, tablet, day 14, geometric mean; quantity = terminal elimination rate constant; result = 0.056 h⁻¹
